Assay results pooled from the literature.
Protocols differ between the studies behind these lines. Several values in a cell are separate wells, animals, samples, runs or records. Numbers after ± are the reported error.

For `CC(C)OC(=O)[C@H](CO)NCc1cc(Cl)c(OCc2cccc(-c3ccccc3)c2Br)cc1OCc1cccnc1`, “tumour volume T/C” read 56% (hPD-L1 MC-38 tumour, humanised hPD-1 C57BL/6 mouse; oral, 2.5 mg/kg × 21, day 20; baseline: vehicle).
`CC(C)C[C@H](NC(=O)CNC(=O)[C@H](CCC(N)=O)NC(=O)[C@H](CC(C)C)NC(=O)[C@H](CC(C)C)NC(=O)[C@H](CCCNC(=N)N)NC(=O)[C@H](CCC(N)=O)NC(=O)[C@H](CC(C)C)NC(=O)[C@H](CCCNC(=N)N)NC(=O)[C@H](C)NC(=O)CNC(=O)[C@H](CCC(=O)O)NC(=O)[C@H](CCCNC(=N)N)NC(=O)[C@H](CC(C)C)NC(=O)[C@H](CCCNC(=N)N)NC(=O)[C@H](CO)NC(=O)[C@H](CC(C)C)NC(=O)[C@H](CCC(=O)O)NC(=O)[C@H](CO)NC(=O)[C@@H](NC(=O)[C@H](Cc1ccccc1)NC(=O)[C@@H](NC(=O)CNC(=O)[C@H](CC(=O)O)NC(=O)C(C)(C)NC(=O)[C@@H](N)Cc1c[nH]cn1)[C@@H](C)O)[C@@H](C)O)C(=O)N[C@@H](CC(C)C)C(=O)N[C@@H](CCC(N)=O)C(=O)NCC(=O)N[C@@H](CC(C)C)C(=O)N[C@H](C(=O)NCC(=O)N[C@@H](CCCCNC(=O)COCCOCCNC(=O)COCCOCCNC(=O)CC[C@H](NC(=O)CCCCCCCCCCCCCCCCC(=O)O)C(=O)O)C(N)=O)C(C)C`: “plasma active ghrelin” “increased” (DIO C57BL/6J mice; dose not given, day 28, added: GLP-1R agonist co-treatment).
For `O=C([O-])CN1Cc2cccc(n2)CN(CC(=O)[O-])Cc2cccc(n2)C1.[Mn+2]`, the r1 relaxivity was 2.55 mM⁻¹ s⁻¹ (HEPES buffer with NaCl; 33 °C, 1.4 T).
Under cardiac fibrosis, `CCC(CC)n1c(Cc2cccs2)nc2cc(C(=O)N[C@@H](CC(=O)O)c3ccccc3)ccc21` is recorded as “decreased” (mouse HFpEF model (high-fat diet plus L-NAME, 7 weeks); intraperitoneal, 20 mg/kg/day, 2 weeks).
`COc1cc(O)ccc1CCC(c1ccc(O)cc1)c1cc2c(c(C)c1O)OC(c1ccc(O)cc1)CC2` (mixture of isomers) gave a 20-OH-LTB4 level of 457 ± 196 pg/mL (human blood; 0.3 µM, added: A23187).
For `CCCCCc1ccc(S(=O)(=O)N2CC2C(=O)OC)cc1` (centres unmarked), the tumour volume was 588 mm3 (mouse, Lewis lung carcinoma; intraperitoneal, 15 mg/kg, 16 doses, day 15).
`C[C@H](NC(=O)COC(=O)[C@H](C)NC(=O)CO)C(=O)O`: “backbone scission rate constant” 0.0005 h⁻¹ (water; pH 2, 25 °C).
The IOP of `NC[C@@H](C(=O)Nc1ccc(-c2cn[nH]c2)cc1)c1ccccc1` is reported as 33.1 mmHg (tonometry; NZW rabbit, magnetic bead-induced ocular hypertension; ocular, 0.1%, 2 h).
With `CC(CCC(=O)NCc1ccc(C(=O)NO)cc1)C1CCC2C3C(O)CC4CC(O)CCC4(C)C3CCC12C` (centres unmarked) the relative abundance was 16.9% (item: GCA; PCK rat (Pkhd1 mutant), liver; oral gavage, dose not given, 5 months; baseline: total bile acids).
`COc1ccc2cc3[n+](cc2c1OCCCOC(=O)c1cscn1)CCc1cc2c(cc1-3)OCO2` — result for “plasma triglyceride reduction”: 35.6% (C57BL/6 mice, high-fat diet; oral gavage, 20 mg/kg daily, 14 weeks; baseline: HFD control).
For `COC1CN([C@H]2CC[C@H]([C@@]3(C)Oc4c(Cl)cc(C(=O)NCc5c(SC)cc(C)[nH]c5=O)c(C)c4O3)CC2)C1`, “log2 fold change” read 3.2 (RNA-seq, item: TIMP3; human, whole blood; dose not given, 24 h; baseline: pretreatment baseline).
`CC(C)C[C@H](NC(=O)[C@H](Cc1ccccc1)NC(=O)[C@H](C)NC(=O)[C@@H](CS)NC(=O)CNC(=O)[C@H](N)CO)C(=O)N[C@@H](CO)C(=O)N[C@H](C(=O)N[C@@H](CCCCN)C(=O)N[C@@H](CCCCN)C(=O)N[C@@H](CCC(N)=O)C(=O)N[C@@H](Cc1ccccc1)C(=O)N[C@@H](CCC(=O)O)C(=O)N[C@@H](CCC(=O)O)C(=O)N[C@@H](CC(C)C)C(=O)N[C@H](C(=O)N[C@@H](CC(C)C)C(=O)NCC(=O)N[C@@H](CCC(=O)O)C(=O)N[C@@H](Cc1ccccc1)C(=O)N[C@@H](CC(C)C)C(=O)N[C@H](CCCCN)C(=O)N[C@H](CC(C)C)C(=O)N[C@H](CC(=O)O)C(=O)N[C@@H](CCCNC(=N)N)C(=O)N[C@H](CCCNC(=N)N)C(=O)N[C@@H](CCCNC(=N)N)C(=O)N[C@@H](CCCCN)C(=O)O)[C@@H](C)O)C(C)C` — result for “CD44 cancer cell level”: “decreased” (mouse A549 xenograft, tumour; intratumoral and intravenous, dose not given).
`COc1cnc2cccc(N3CCc4c(cc(Cn5ccnc5)cc4-c4cn(C)nc4C(F)(F)F)C3=O)c2c1` gave a tumour volume of 188 mm3 and 136 mm3 and 207 mm3 and 162 mm3 and 143 mm3 (BALB/c nude mice, MV4-11 xenograft; intraperitoneal, 50 mg/kg, day 17).
For `COc1cccc(OCCN2CCC[C@H](CN3CCc4cc(OC)c(OC)cc4CC3=O)C2)c1`, “time in centre, open field” read “no effect” (C57BL/6J mouse, male, chronic social defeat stress; intraperitoneal, 5 mg/kg, 14 d post-dose; baseline: before dosing).
With `COc1ccc(C(=O)CCc2cc(C(CCc3ccc(O)cc3OC)c3ccc(O)cc3)c(O)cc2OC)cc1` (racemic) the EPA level was 74500 ± 13000 pg/mL (human blood; 30 µM, added: A23187).
`CN1CCC[C@]1(C)/C=C/S(=O)(=O)NC(=O)Nc1c2c(cc3c1CCC3)CCC2` gave an IL-18 inhibition of 84.2% (human, whole blood ex vivo; 50 mg twice daily, day 1, 6 h, multiple ascending dose, added: LPS and ATP).
`Cc1[nH]nc2c1N=C(c1ccccc1Cl)c1cnc(N3CCOCC3)cc1N2` — result for “tumour growth inhibition”: 94% (mouse sample BC TNBC PDX; oral, 15 mg/kg, 120 h, 5 days per week).
`CC(=O)[O-].O.O.O.O.[Co+2].[O-]c1ccc(Br)cc1C=NCCN1CCOCC1` gave an inhibition of 15.3% (DPPH radical scavenging; 40 µM).
With `N=C(N)NCCC[C@@H]1NC(=O)[C@H](CCCNC(=N)N)NC(=O)[C@@H](CCCNC(=N)N)NC(=O)[C@@H](CCCNC(=N)N)NC(=O)[C@@H](C(c2ccccc2)c2ccccc2)NC(=O)[C@H](Cc2c[nH]c3ccccc23)NC(=O)[C@@H](C(c2ccccc2)c2ccccc2)NC1=O` the calcein leakage was 12 to 18% (mammalian membrane liposomes; 50 µg/mL, 100 min).
Under “annexin V+/PI+ cells”, `Cc1ccc([N+](=O)[O-])cc1S(=O)(=O)N(C)/N=C/c1cnc2ccc(Br)cn12` is recorded as 17.8% (peripheral blood mononuclear cells, Sézary syndrome patients; 200 nM).

A few entries again:
`CN1CCC[C@]1(C)/C=C/S(=O)(=O)NC(=O)Nc1c2c(cc3c1CCC3)CCC2` gave an IL-18 inhibition of 84.2% (human, whole blood ex vivo; 50 mg twice daily, day 1, 6 h, multiple ascending dose, added: LPS and ATP).
